Measured values collected from several papers.
A part holds a random share of what one study measured. Positions count from the first letter of the parent shown.
UniProt P43250, sequence (whole entry, looked up): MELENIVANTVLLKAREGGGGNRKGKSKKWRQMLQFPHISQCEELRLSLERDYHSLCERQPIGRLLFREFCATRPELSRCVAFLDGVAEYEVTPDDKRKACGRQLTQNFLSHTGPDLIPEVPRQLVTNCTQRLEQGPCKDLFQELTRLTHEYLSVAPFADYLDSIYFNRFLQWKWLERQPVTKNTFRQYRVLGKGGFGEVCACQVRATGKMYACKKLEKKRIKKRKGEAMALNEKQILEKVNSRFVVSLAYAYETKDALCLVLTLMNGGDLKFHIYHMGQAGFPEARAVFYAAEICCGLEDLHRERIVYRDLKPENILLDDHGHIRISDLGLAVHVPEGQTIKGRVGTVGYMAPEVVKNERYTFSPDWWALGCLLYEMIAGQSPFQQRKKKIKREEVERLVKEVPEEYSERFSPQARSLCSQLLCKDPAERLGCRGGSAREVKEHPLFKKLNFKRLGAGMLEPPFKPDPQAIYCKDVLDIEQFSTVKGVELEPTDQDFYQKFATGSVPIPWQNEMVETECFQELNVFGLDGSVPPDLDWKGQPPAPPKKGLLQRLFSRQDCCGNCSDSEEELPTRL

Block 1
Target: RNA binding protein fox-1 homolog 2, RRM domain, GST-SBP tag (RBFOX2, Homo sapiens, UniProt O43251-10, residues 100-194)
Method: RNA Bind-n-Seq
Molecule type: RNA
Medium: in vitro
Concentration: 365 nM
Setting: natural RNA segment, single round, ends assumed
Relative to: no-protein control
Reading: higher = stronger binding
Constant ends, left off below: GGGAGUUCUACAGUCCGACGAUC … UGGAAUUCUCGGGUGCCAA
Target sequence (chain): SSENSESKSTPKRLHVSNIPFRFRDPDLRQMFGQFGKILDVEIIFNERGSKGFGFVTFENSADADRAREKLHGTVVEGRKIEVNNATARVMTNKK
Sequence | RBNS enrichment (R)
GAUCCCUUCUGUAGCCUAAAGUAUGGCUGGGAAAUGGACUUGAGAAGAUUGGCUUGAAUUAGAUCAUAAUCAUGUGUGAUCCCAUCAUGAAUUCAUUGGAAUUUGUGUUG | 0.773
AAUCUGCUUGGUAAAUGUCUCCUGGGAAAGGCAGAACCCAUAACUUAAAGACACGCACAGUCCCUUCCAUUGUCCCACAGGAGUUCCUCUGGCUGAGUAUGCCAUCCAGA | 0.576
GACAGCUAGCUAAGUCAAGCUUUUCAAUAGAGGAGAAAAUAAAGAUGGCGACAGGUUGGCUUAGGUGGAGGAAGAAAAGAGUUAUCAUUUUUAGACUAAAUCCACGCAUG | 0.569
AUGGUGAGGGGUUUACAGGGUAAGGGGACAAGACUACACACACUAGCGUGGUAGGACUAGAUUUUUGUUUUCCCCACCAAGUAAAUGUUCACCUGUGACCUUGGGCUGGG | 0.809
UAAUCGGUGUAAAUCGCUGUUUGGAUUUCCUGAUUUUAUAAUAGGGUGGCUGGUUAAUAUCUCACACAGUUUGAAAAAUCAGCCCCUGGUUUCUCCAUGUUUACACUUCA | 0.276
UGCAGAUGAUAAAACUAAUUUUGAACUUUUUAAUUUAUAUAAAUUAUUUUAUAUCACUUACUUAUUUCACUUUAUUUUGCUUUGUGCUCAUUGAUAUAUAUUAGCUGUAC | 0.83
AUGUGGACUCGUAAGAUUCACAGAGAAUGUGUGCUCUGUUGUGAUUCUCUUGUCAUAGUCCUGGUUUGCCAGCUGACUACAGGAUAGACCCAGCUGUCUGGCACUCAAAC | 1.27
CCUUUGUGGAUAUAUAAGCAAAUUGAGCUUGGGUGAUUUUUAUGGAGACAAUAAUUAGACAAUACUGUAUAAUUAGUUUUACUUAAUAGAUUAUCAUCUUGUGAGAAGAG | 0.26

Block 2
Target: CCND3, cyclin fold, Cln2 fusion (human)
Method: yeast growth competition, sequencing
Medium: yeast
Setting: weak parent motif
Relative to: not given
Reading: higher = stronger binding
Starting sequence: RB1 docking peptide (human); PKPLKKLRFDIEG; partner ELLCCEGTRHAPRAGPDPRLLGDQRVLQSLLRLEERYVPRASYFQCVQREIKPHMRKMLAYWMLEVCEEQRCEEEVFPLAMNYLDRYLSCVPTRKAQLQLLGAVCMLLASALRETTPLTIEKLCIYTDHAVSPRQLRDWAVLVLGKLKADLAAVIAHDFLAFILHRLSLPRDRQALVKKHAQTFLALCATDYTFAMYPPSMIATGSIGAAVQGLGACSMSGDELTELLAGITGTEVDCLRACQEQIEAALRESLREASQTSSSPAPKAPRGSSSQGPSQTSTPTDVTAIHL
Change | normalised enrichment score
F9L | 0.0845
D10A | 0.168
P3C | 0.221
P3A | 0.178
K2A | 0.159
K2P | 0.132
E12T | 0.285
K5A | 0.0996

Single results of other studies
Compound | target or system | assay | conditions | how to read | measurement | value
CCCCc1c(-c2ccc(O)cc2)[nH]c2nccnc12 | GRK6 (Homo sapiens, UniProt P43250) | enzyme activity, inhibitor | 0.5 µM | relative to: control | remaining activity | 83.5%
Cn1cncc1[C@@](O)(COc1ccc(C#N)cc1-c1ccc(OC(F)(F)F)cc1)c1ccc(C#N)cc1 | HEK293T | high-content imaging | 10 µM, 24 h | – | cells with fragmented nuclei | 4.97%

Excerpt of the above (block 1):
Sequence | RBNS enrichment (R)
UGCAGAUGAUAAAACUAAUUUUGAACUUUUUAAUUUAUAUAAAUUAUUUUAUAUCACUUACUUAUUUCACUUUAUUUUGCUUUGUGCUCAUUGAUAUAUAUUAGCUGUAC | 0.83
AUGUGGACUCGUAAGAUUCACAGAGAAUGUGUGCUCUGUUGUGAUUCUCUUGUCAUAGUCCUGGUUUGCCAGCUGACUACAGGAUAGACCCAGCUGUCUGGCACUCAAAC | 1.27
